Assay results collected from several papers.
± marks the error that the study gave.

O=C(NS(=O)(=O)c1cccs1)c1cc2ccccc2n1Cc1ccc(Br)c2ccccc12
AUC(0-inf) (Sprague-Dawley rat, male, plasma; intravenous, 2 mg/kg): 2130 ng·h/mL

OC1(C(F)(F)F)CCN(c2nc(Nc3ccnc(C(F)(F)F)c3)nc(-c3cccc(C(F)(F)F)n3)n2)C1 (stereo not shown)
AUC(0-inf) (Sprague-Dawley rat, both sexes, plasma; oral gavage, 5 mg/kg, day 14): 22600 ± 7330 ng·h/mL

O=C(O)/C=C\c1cc2ccoc2cc1O[C@@H]1O[C@H](CO)[C@@H](O)[C@H](O)[C@H]1O
AUC(0-inf) decrease (rat, plasma; oral, dose not given, dosed as combined Eu and Pc extracts; reference: single extracts): 771000 ± 703000 ng·h/mL

C=C(NC(=O)c1csc(-c2nc3c(cc2O)-c2nc(cs2)C(=O)NC(C(C)O)C(=O)NC(=C(C)OC)c2nc(cs2)C(=O)NC2c4nc(cs4)C(=O)NC(COC(=O)c4c5c6c(cccc6n4O)COC(=O)C(OC4CC(C)(O)C(N(C)C)C(C)O4)C2OC5)c2nc-3cs2)n1)C(N)=O (stereo not shown)
AUC(0-inf) (male Sprague-Dawley rats, plasma; intravenous infusion, 2 mg/kg): 805 ng·h/mL

O=C(O)c1c(O)cc(O[C@@H]2O[C@H](CO)[C@@H](O)[C@H](O)[C@H]2O)cc1/C=C/c1ccccc1
AUC(0-inf) (Sprague-Dawley rat, plasma; intravenous, 1.0 mg/kg): 1160 ± 148 ng·h/mL

Cc1cccc(C)c1CNc1cc(C(=O)N2CCC2)cn2c(C)c(C)nc12
AUC(0-inf) (rat Sprague-Dawley male, plasma; oral, 10 mg/kg): 806 ng·h/mL

O=C(Nc1cc(-c2ccnc3[nH]ccc23)c(Cl)cn1)[C@H]1CCC[C@@H](NC(=O)C(F)(F)F)C1
AUC(0-inf) (rat, plasma; oral, dose not given): 4460 ng·h/mL

CNC(=O)C1CCCN(C(=O)C2CC3CCC2N3C(=O)[C@@H]2C[C@@H](O)CN2C(=O)NCc2cccc(Cl)c2F)C1 (mixture of isomers)
AUC(0-inf) (Sprague-Dawley rat, plasma; intravenous, 2.5 mg/kg): 695 ng·h/mL

C/C(N)=N/C(=N\S(=O)(=O)c1ccc(C(F)(F)F)cc1)N1C[C@H](c2ccccc2)C(c2ccc(Cl)cc2)=N1
AUC(0-inf) (Sprague-Dawley rat, male, plasma; intravenous, 3 mg/kg): 6280 ng·h/mL

CCCC[C@H](OC(C)=O)c1ccccc1C(=O)O
AUC(0-inf) (Sprague-Dawley rat, both sexes, whole blood; intravenous, 5 mg/kg, 7 days): 4560 ± 1220 ng·h/mL

A few entries again:
CNC(=O)C1CCCN(C(=O)C2CC3CCC2N3C(=O)[C@@H]2C[C@@H](O)CN2C(=O)NCc2cccc(Cl)c2F)C1 (mixture of isomers)
AUC(0-inf) (Sprague-Dawley rat, plasma; intravenous, 2.5 mg/kg): 695 ng·h/mL

OC1(C(F)(F)F)CCN(c2nc(Nc3ccnc(C(F)(F)F)c3)nc(-c3cccc(C(F)(F)F)n3)n2)C1 (stereo not shown)
AUC(0-inf) (Sprague-Dawley rat, both sexes, plasma; oral gavage, 5 mg/kg, day 14): 22600 ± 7330 ng·h/mL
